Experimental data gathered from unrelated publications.
Lines come from different studies, so protocols differ. Values joined by “and” are separate records of one study, mostly repeats; a detail may differ. ± gives the spread as reported.

| Structure (SMILES) | test | test system | setting | scale | endpoint | result |
| --- | --- | --- | --- | --- | --- | --- |
| CCCCCN1C[C@H](O)[C@@H](O)[C@H](O)[C@@H]1CO |  | mouse Hexb-/-, liver | 30 mg/kg/day | baseline: untreated Hexb-/- mice | number of decreased sphingolipids | 31 |
| N=C(N)NCCC[C@H](NC(=O)[C@H](CCCNC(=N)N)NC(=O)[C@H](CCCCN)NC(=O)[C@H](CCC(N)=O)NC(=O)[C@H](CCCCN)NC(=O)[C@H](Cc1ccc(O)cc1)NC(=O)[C@@H](N)CCCCN)C(=O)N[C@@H](CO)C(=O)N[C@@H](Cc1ccc(O)cc1)C(=O)N[C@@H](CCCCN)C(=O)O |  | dentin hypersensitivity patients | 5 µg/tooth single, day 22, unit not given | baseline: baseline | tactile threshold change | -1 ± 0.89 |
| O=C1Nc2cc3[nH]nc(-c4ccncc4)c3cc2CN1Cc1ccccc1 | RECIST v1.1 | human, relapsed or refractory advanced solid tumours | intravenous, 1.8 mg/kg, pooled schedules |  | stable disease, best response | 0% |
| O=S(=O)(NCCNC/C=C/c1ccc(Br)cc1)c1cccc2cnccc12 |  | mouse zygotes | 20 µM, 120 h post-hCG |  | embryos reaching 8-cell | 0% |
| CC(=O)Oc1cc2c(s1)CCN(C(C(=O)C1CC1)c1ccccc1F)C2 (stereo not shown) | platelet aggregation, light transmittance aggregometry | human, platelet-rich plasma | 15 min, IPA above 90 %, with: TRAP 15 µM | baseline: patients | patients with IPA above threshold | 0% |
| CC1(C)CCC(CN2CCN(c3ccc(C(=O)NS(=O)(=O)c4ccc(NCC5CCOCC5)c([N+](=O)[O-])c4)c(Oc4cnc5[nH]ccc5c4)c3)CC2)=C(c2ccc(Cl)cc2)C1 | cell killing | canine lymph node CD21+ B cells, dog 33 | 24 h |  | EC50 | 15.8 nM |
| O=C(O)CCC(=O)O.[2H]C([2H])([2H])Oc1cc(C)c2[nH]ccc2c1CN1CC[C@@H](C2CC2)C[C@H]1c1ccc(C(=O)O)cc1 | alternative complement pathway activity, Wieslab ELISA | healthy humans, most subjects, serum | 50 mg twice daily, trough, multiple doses |  | inhibition | > 80% |
| O=C(O)CNC(=O)Cc1ccccc1 |  | ventricular cardiomyocytes, C57BL/6 mouse | dose not given, 0.624 s |  | sarcomere length | 1.7 µm |
| CCN(Cc1nc2c(N)nc3cc(-c4cc[nH]n4)ccc3c2[nH]1)C(C)=O | immunohistochemistry, measured: cytotoxic T cells | patients with advanced solid tumours, non-injected tumour lesions | dose not given, monotherapy | baseline: baseline | mean fold change | 1 |
| C[C@H](Oc1ccc(Br)cc1-c1ccon1)C(=O)O | first response peak | human, tibialis anterior muscle | 1200 mg, 30-15 Hz, SAD |  | difference from placebo | 6.54% |
| CN(C)C(=O)c1cc2cnc(Nc3ccc(N4CCNCC4)cn3)nc2n1C1CCCC1 | RNA-seq GSEA, measured: HALLMARK_APICAL_SURFACE | MB002 tumour | concentration not given, in vivo | baseline: vehicle, direction not given | normalized enrichment score | 1.15 |
| CN(C(=O)n1cnc(-c2ccc[n+]([O-])c2)c1)C1CCCCC1 | measured: OEA | human, plasma | 100 mg single dose |  | AUC(0-t) | 816 ng·h/mL |
| Cc1sc2c(c1C)C(c1ccc(Cl)cc1)=N[C@@H](CC(=O)NCCCCCCCCNC(=O)COc1cccc3c1C(=O)N(C1CCC(=O)NC1=O)C3=O)c1nnc(C)n1-2 (stereo partly shown) | flow cytometry | 4T1 tumour-bearing mice, lymph nodes | dose not given |  | CD8+ T cells | 15.5% and 17.2% and 17.4% and 14% |
| Cc1n[nH]c2ccc(-c3cc(OC[C@@H](N)Cc4ccccc4)cnc3-c3ccoc3)cc12 | kinase binding, competitor, MIB/MS competition, measured: YCK2 | Candida albicans cell lysate | 100 nM | baseline: DMSO | log2 fold change | -0.488 |
| NCC(=O)Nc1cncc(-c2nn3c(=O)cc(N4CCNCC4)nc3s2)c1 | ADP-induced platelet aggregation, light transmission aggregometry | human, stable CAD on aspirin, platelets ex vivo | subcutaneous, 0.075 mg/kg, 90 min post-dose, with: ADP 20 µM |  | inhibition | 48.9% |
| C[C@@H](O)CCOC(=O)C[C@@H](C)O |  | human | oral drink, dose not given, 240 min post dose, median, all participants |  | plasma insulin | 445 pg/mL |
| C[C@@H]1CCC[C@H](n2cnc(-c3cc(Cl)ccc3-n3cc(Cl)nn3)cc2=O)c2cc(ccn2)-c2c(cnn2C(F)F)NC1=O |  | dog plasma | IC1.5× aPTT, STA-PTT reagent |  | concentration for aPTT prolongation | 610 nM |
| CCOc1c([C@H](C)n2nc(C)c3c(N)ncnc32)cc(Cl)c(F)c1[C@@H]1CNC(=O)C1 | Olink proximity extension proteomics, measured: CCL19 | human FL or MZL patients, plasma | dose not given, week 8 | baseline: baseline | plasma protein level change | -65% |
| CC#Cc1cncc(-c2ccc3c(c2)[C@@]2(N=C(C)C(N)=N2)[C@]2(CC[C@H](OC)CC2)C3)c1 | measured: Aβ42 | Dunkin-Hartley guinea pigs, CSF | oral, dose not given, 8 h |  | maximum reduction | 90% |
| C[C@@H](NC(=O)N1C(=O)[C@H](Cc2ccnc(N)c2)[C@H]1C(=O)O)C1CCCCC1 |  | human | iv infusion, 1.5 mg/kg/h, 24 h |  | aPTT Emax | 56.8 s |
| CCO[C@H]1CCN(Cc2c(OC)cc(C)c3[nH]ccc23)[C@H](c2ccc(C(=O)O)cc2)C1 |  | PNH patients, blood | oral, 50 mg then 200 mg, week 8, mean percent change | baseline: baseline | PNH RBC clone size | 396% |
| NC(=O)c1cnc2[nH]ccc2c1N[C@@H]1[C@@H]2CC3C[C@H]1C[C@@](O)(C3)C2 | flow cytometry, measured: CD8+ memory T cells | Japanese healthy subjects, peripheral blood | oral, 10 mg twice daily, day 4 |  | change from baseline | -0.62% |
| N#Cc1ccn2c(-c3ccncc3)c(-c3ccc(F)cc3)nc2c1 | kinase binding, competitor, MIB/MS competition, measured: CKA1 | Candida albicans cell lysate | 100 nM | baseline: DMSO | log2 fold change | -0.121 |

| Structure (SMILES) | test | test system | setting | scale | endpoint | result |
| --- | --- | --- | --- | --- | --- | --- |
| N#Cc1ccc2c(c1)[C@H]1CCCN(C(=O)c3ccc4[nH]cnc4c3)[C@H]1C2 | meal tolerance test | human, Phase II trial | 20 mg once daily, day 28, AUC0-2 h, adjusted mean | baseline: baseline | glucose AUC change | 1.06 mmol/h/L |
| Cc1cc(NC(=O)NCCN2CCC(O)(Cc3ccccc3)CC2)c2ccccc2n1 | open field test | humanized UT (+/h+) mice | dose not given, 0.1667 h |  | distance travelled | 30 m and 18 m and 21 m and 34 m and 26 m |
| c1ccc(-c2n[nH]cc2-c2ccnc3ccccc23)nc1 | kinase binding, competitor, MIB/MS competition, measured: NPR1 | Candida albicans cell lysate | 100 nM | baseline: DMSO | log2 fold change | 1.35 |
| Cn1cc(Nc2nccc(-c3ccc4c(c3)CN(C3COC3)CC[C@H]4NC(=O)c3cn(C(C)(C)C)nn3)n2)cn1 | measured: Endocannabinoid Developing Neuron Pathway | splenic B cells, Mus musculus | 30 mg/kg, with: IgD activation | baseline: vehicle, direction not given | pathway activation z-score | 2 |
| C=CCn1c(=O)c2cnc(Nc3ccc(N4CCN(C)CC4)cc3)nc2n1-c1ccc2c(n1)[C@@](O)(CC)CC2 |  | SW1463 xenograft, NCG mice | oral, 60 mg/kg days 0-11 then 80 mg/kg days 11-21, day 21, once daily |  | tumour growth inhibition | 56.9% |
| O=C(COc1ccc(Cl)cc1)NC12CC(c3nnc([C@H]4C[C@@H](OC(F)(F)F)C4)o3)(C1)C2 |  | healthy human, PBMC | 45 mg once daily, day 15, 24 h post-dose, median, with: sodium arsenite ex vivo | baseline: baseline | ATF4 protein change | -50.2% |
| CC[C@H](C)[C@H](NC(=O)[C@H](C)NC(=O)CNC(=O)[C@H](Cc1ccccc1)NC(=O)[C@H](CC(N)=O)NC(=O)[C@H](CC(N)=O)NC(=O)[C@H](CO)NC(=O)[C@H](CO)NC(=O)[C@H](Cc1c[nH]cn1)NC(=O)[C@@H](NC(=O)[C@H](CC(C)C)NC(=O)[C@H](Cc1ccccc1)NC(=O)[C@H](CC(N)=O)NC(=O)[C@H](C)NC(=O)[C@H](CC(C)C)NC(=O)[C@H](CCCNC(=N)N)NC(=O)[C@H](CCC(N)=O)NC(=O)[C@@H](NC(=O)[C@H](C)NC(=O)[C@@H]1CSSC[C@H](NC(=O)[C@@H](N)CCCCN)C(=O)N[C@@H](CC(N)=O)C(=O)N[C@@H]([C@@H](C)O)C(=O)N[C@@H](C)C(=O)N[C@@H]([C@@H](C)O)C(=O)N1)[C@@H](C)O)C(C)C)C(=O)N[C@@H](CC(C)C)C(=O)N[C@@H](CO)C(=O)N[C@@H](CO)C(=O)N[C@H](C(=O)N[C@@H](CC(N)=O)C(=O)N[C@H](C(=O)NCC(=O)N[C@@H](CO)C(=O)N[C@@H](CC(N)=O)C(=O)N[C@H](C(=O)N[C@@H](Cc1ccc(O)cc1)C(N)=O)[C@@H](C)O)C(C)C)[C@@H](C)O |  | isolated mouse islets | 10 µM, 24 h, with: 16.7 mM glucose (high) | baseline: control | insulin secretion | ~7.2% |
| CCCCC1(CCCC)CN(c2ccccc2)c2cc(SC)c(OCC(=O)N[C@@H](C(=O)NCC(=O)O)c3ccccc3)cc2S(=O)(=O)C1 | measured: 7α-hydroxy-4-cholesten-3-one | human, plasma | 15 mg once daily, day 13 |  | plasma C4 | 77.1 ng/mL |
| O=C1c2ccncc2C(=O)c2c1[nH]c1ccccc21 | decreased | rat, female, monocrotaline PAH model, lung | intravenous, 1 mg/kg every 48 h, days 17-27 | baseline: monocrotaline plus saline | medial thickness of small pulmonary arteries | decreased |
| COc1cc2nccc(Oc3ccc(NC(=O)NC4CC4)c(Cl)c3)c2cc1C(N)=O | measured: Tie-2 | human, serum | PK/PD model, bootstrap median |  | Hill coefficient | 0.292 |
| CC(C)NCC(O)c1ccc(O)c(O)c1 (stereo not shown) |  | ventricular cardiomyocytes, C57BL/6 mouse | dose not given, 0.336 s |  | sarcomere length | 1.72 µm |
| COc1ccccc1[C@H](Cn1c(=O)n(C(C)(C)C(=O)O)c(=O)c2c(C)c(-c3ncco3)sc21)OC1CCOCC1 | [1-13C]acetate infusion, isotopomer analysis | overweight or obese healthy men, plasma VLDL-TG palmitate | oral, 200 mg single dose, 6 h post-dose, with: oral fructose |  | fractional hepatic DNL | 5.05 % new palmitate |
| Cc1oncc1C(=O)Nc1ccc(C(F)(F)F)cc1 | measured: dihydroorotate | female CD-1 mice, blood | oral, 10 mg/kg daily, 8 h after dose 1, 10-day dosing |  | DHO concentration | 3.32 ± 0.127 µM |
| C[C@]12CC[C@@H]3c4ccc(O)cc4CC[C@H]3[C@@H]1CC[C@@H]2O | RT-qPCR, measured: CO | Arabidopsis thaliana ING1:FLAG seedlings | 20 µM, 6 h after treatment, sampled at ZT12, replicate rep3, unit not given | baseline: TUB2 | mRNA level | 0.0771 |
| OC(CCN1CCCCC1)(c1ccccc1)C1CC2C=CC1C2 (stereo not shown) | resting-state EEG | healthy elderly humans | oral, 4 mg, eyes open, LS mean | baseline: baseline | change in EEG Alpha2-power Fz-Cz | 49.7% |
| COc1ccc(-c2cncc(N[C@@H](C)c3cccc(NC(=O)c4cncc(C)c4)c3)n2)cc1OC | measured: rno-miR-224-5p | rat SU5416/hypoxia model, lung | dose not given | baseline: SU5416/hypoxia vehicle | fold change | 0.704 |
| CN[C@@H]1COc2c(S(=O)(=O)NC(=O)Nc3c4c(cc5c3CCC5)CCC4)cnn2C1 | measured: IL-18 | human participants, whole blood ex vivo | 450 mg single dose, 4 h, IL-18, circulating, adjusted for, with: LPS/ATP | baseline: baseline | inhibition | 102% |
| COc1cc(/C=C/C(=O)CC(=O)/C=C/c2ccc(O)c(OC)c2)ccc1O |  | high-fat diet hyperlipidaemic rat | oral, 200 mg/kg daily, 4 weeks |  | plasma LDL-C | 1.47 ± 0.3 mmol/L |
| Oc1nc2nonc2cc1Nc1c(F)c(F)c(F)c(F)c1F |  | Western diet-fed mice | in diet, dose not given | baseline: untreated | fat mass gain reduction | 59% |
| N#Cc1ccc2c(-c3ccncc3)c(-c3ccc(F)cc3)nn2c1 | kinase binding, competitor, MIB/MS competition, measured: SAK1 | Candida albicans cell lysate | 10 µM | baseline: DMSO | log2 fold change | -0.169 |
| Cc1c(NC(=O)c2cccnc2)c(=O)n(-c2ccccc2)n1C | histology | Dmd C3333Y mice, quadriceps | dose not given |  | necrotic area | 9.6% and 9.1% and 11.2% and 10.3% and 7.4% |
| CN(C)C(=O)Oc1cccc([N+](C)(C)C)c1 | neuromuscular block reversal | rat | dose not given, 19 (unit not given), with: cisatracurium | baseline: T1 twitch | train-of-four ratio | 98.5 |
| C[C@H]1C[C@H]2CSC(N)=N[C@@]2(c2nc(NC(=O)c3ccc(OC(F)F)cn3)cs2)CO1 | measured: total Aβ | healthy adults, plasma | 540 mg single dose, 24 h post-dose | baseline: placebo | percent change from baseline | -69.4% |

Repeated from above:
| Structure (SMILES) | test | test system | setting | scale | endpoint | result |
| --- | --- | --- | --- | --- | --- | --- |
| COc1ccc(-c2cncc(N[C@@H](C)c3cccc(NC(=O)c4cncc(C)c4)c3)n2)cc1OC | measured: rno-miR-224-5p | rat SU5416/hypoxia model, lung | dose not given | baseline: SU5416/hypoxia vehicle | fold change | 0.704 |
| CCO[C@H]1CCN(Cc2c(OC)cc(C)c3[nH]ccc23)[C@H](c2ccc(C(=O)O)cc2)C1 |  | PNH patients, blood | oral, 50 mg then 200 mg, week 8, mean percent change | baseline: baseline | PNH RBC clone size | 396% |
